{"data": "Measurements collected from several papers", "note": "Parts stem from different laboratories: compare values within a part only. Values joined by “and” are separate records of one study, mostly repeats; a detail may differ. Changes are numbered by the printed parent chain."}
{"data": "Study 1", "target": "HLA class I histocompatibility antigen, C alpha chain, allele C*04:01 (Homo sapiens, UniProt P10321)", "read-out": "peptide-MHC binding", "molecule type": "peptide", "tested at": "concentration not given"}
{"Molecule": "FMFDSDEAM", "binding": "inactive"}
{"Molecule": "YYNAFQWAI", "binding": "inactive"}
{"Molecule": "ISPRNYFTF", "binding": "inactive"}
{"Molecule": "FLLENAAYL", "binding": "inactive"}
{"Molecule": "ETTNWLWAF", "binding": "inactive"}
{"Molecule": "SAYYLDIGF", "binding": "inactive"}
{"data": "Study 2", "target": "CCND1, cyclin fold, Cln2 fusion (human)", "method": "yeast growth competition, sequencing", "sample": "yeast", "setting": "strong parent motif", "reference": "not given", "direction": "higher = stronger binding", "starting sequence": "viral docking peptide; YKVKRRLVFGADD"}
{"Change": "YKVKRRLVFGYDD [A11Y]", "normalised enrichment score": 1.62}
{"Change": "YKVQRRLVFGADD [K4Q]", "normalised enrichment score": 2.89}
{"Change": "YKAKRRLVFGADD [V3A]", "normalised enrichment score": 5.57}
{"Change": "YKVKRRLPFGADD [V8P]", "normalised enrichment score": 0.0404}
{"Change": "YKMKRRLVFGADD [V3M]", "normalised enrichment score": 0.274}
{"Change": "YKVKRRLHFGADD [V8H]", "normalised enrichment score": 1.33}
{"Change": "YKCKRRLVFGADD [V3C]", "normalised enrichment score": 3.67}
{"Change": "YKVKRRLVFPADD [G10P]", "normalised enrichment score": 2.76}
{"data": "Study 3", "target": "Muscarinic acetylcholine receptor M1 (CHRM1, Homo sapiens, UniProt P11229)", "read-out": "ligand displacement", "tested at": "10 µM", "UniProt P11229, sequence (whole entry, looked up)": "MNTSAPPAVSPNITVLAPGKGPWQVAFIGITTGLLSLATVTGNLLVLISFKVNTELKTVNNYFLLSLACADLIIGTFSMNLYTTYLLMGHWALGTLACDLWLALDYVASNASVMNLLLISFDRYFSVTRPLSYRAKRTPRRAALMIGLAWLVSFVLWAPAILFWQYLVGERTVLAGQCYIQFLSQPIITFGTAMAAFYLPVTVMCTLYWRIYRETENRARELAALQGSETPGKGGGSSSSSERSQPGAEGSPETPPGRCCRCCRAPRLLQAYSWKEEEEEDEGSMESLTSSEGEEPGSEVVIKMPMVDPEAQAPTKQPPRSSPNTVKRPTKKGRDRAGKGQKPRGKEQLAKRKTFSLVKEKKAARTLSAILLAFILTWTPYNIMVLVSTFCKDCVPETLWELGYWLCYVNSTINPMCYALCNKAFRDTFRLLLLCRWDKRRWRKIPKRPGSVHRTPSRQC"}
{"SMILES": "C[C@H](c1ccnc(Nc2nc3ccc(-c4cc(N(C)C)ncn4)cc3[nH]2)c1)N1CCN(C(=O)CC(F)(F)F)CC1", "inhibition [%]": 15.1}
{"SMILES": "Nc1nc(NCc2ccccc2)nc(-c2ccccc2CO)n1", "inhibition [%]": 23.6}
{"SMILES": "Cc1noc([C@H]2C[C@@H](c3ccc(C(F)(F)F)cc3)CN(C(=O)N3CCS(=O)(=O)C3)C2)n1", "inhibition [%]": -7.31}
{"data": "Mixed results", "method": "CCK-8"}
{"Compound": "CC(C)S(=O)(=O)c1cc2c(Nc3ccc4sc(C5CCCC5)nc4c3)ccnc2cc1OCCO", "cell line": "L929", "tested at": "25 µM", "viability": "56.3% and 75.5% and 55.6% and 56% and 76%"}
{"Compound": "CC[C@H](C)c1nc2cc(Nc3ccnc4ccc(S(=O)(=O)C(C)C)cc34)ccc2s1.Cl", "cell line": "HT-29", "read-out": "necroptosis protection", "tested at": "5 µM", "added": "TNF-α SMAC mimetic zVAD", "viability": "47.8% and 61.7% and 96% and 66.2% and 95.2%"}
{"note": "A few entries again (mixed results):"}
{"Compound": "CC(C)S(=O)(=O)c1cc2c(Nc3ccc4sc(C5CCCC5)nc4c3)ccnc2cc1OCCO", "cell line": "L929", "tested at": "25 µM", "viability": "56.3% and 75.5% and 55.6% and 56% and 76%"}
{"Compound": "CC[C@H](C)c1nc2cc(Nc3ccnc4ccc(S(=O)(=O)C(C)C)cc34)ccc2s1.Cl", "cell line": "HT-29", "read-out": "necroptosis protection", "tested at": "5 µM", "added": "TNF-α SMAC mimetic zVAD", "viability": "47.8% and 61.7% and 96% and 66.2% and 95.2%"}
